# Measurements from different studies.
# Each numbered part is a random draw from the data of one study; scales do not carry over between parts. Positions count from the first letter of the parent shown.

# Study 1 — technique: protein binding microarray; form: double-stranded DNA, one strand shown; medium: in vitro; concentration: not given; relative to: not given; direction: higher = stronger binding
# Target: Histone acetyltransferase KAT6A, winged helix 2, GST fusion (KAT6A, Homo sapiens, UniProt Q92794, residues 85-181)
# Notes: 8-mer, flanks averaged, mean of 2 arrays, mostly near background
# Construct (chain): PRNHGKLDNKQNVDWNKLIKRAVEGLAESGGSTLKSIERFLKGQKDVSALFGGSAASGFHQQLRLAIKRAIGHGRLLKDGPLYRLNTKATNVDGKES
Sequence,E-score
ATAAACCC,0.193
AAAGATCC,0.0186
CTAGTTAC,-0.103
AACTAGAA,0.0233
ATTAGGGC,-0.0448
ATCCCTCC,0.0927
CCTATCGA,-0.126
AGAAGACC,-0.0428
GCGTATTA,0.0414
GCAAGTTA,0.0962
CCCCACTA,-0.22
GTATATTA,-0.0138
ACGGTAAA,-0.294
GACTTACC,-0.207
CTCTCTTC,-0.0338
AAGATGCA,0.0509
AAGTCAAC,-0.0161
AATATCCG,0.17

# Study 2 — technique: EMSA with sequencing; form: double-stranded DNA, one strand shown; medium: in vitro; concentration: 10 and 20 nM; relative to: negative control set to 0; direction: higher = stronger binding
# Target: Hepatocyte nuclear factor 3-alpha (Foxa1, Mus musculus, UniProt P35582, residues 1-468, full length assumed)
# UniProt P35582, sequence (whole entry, looked up): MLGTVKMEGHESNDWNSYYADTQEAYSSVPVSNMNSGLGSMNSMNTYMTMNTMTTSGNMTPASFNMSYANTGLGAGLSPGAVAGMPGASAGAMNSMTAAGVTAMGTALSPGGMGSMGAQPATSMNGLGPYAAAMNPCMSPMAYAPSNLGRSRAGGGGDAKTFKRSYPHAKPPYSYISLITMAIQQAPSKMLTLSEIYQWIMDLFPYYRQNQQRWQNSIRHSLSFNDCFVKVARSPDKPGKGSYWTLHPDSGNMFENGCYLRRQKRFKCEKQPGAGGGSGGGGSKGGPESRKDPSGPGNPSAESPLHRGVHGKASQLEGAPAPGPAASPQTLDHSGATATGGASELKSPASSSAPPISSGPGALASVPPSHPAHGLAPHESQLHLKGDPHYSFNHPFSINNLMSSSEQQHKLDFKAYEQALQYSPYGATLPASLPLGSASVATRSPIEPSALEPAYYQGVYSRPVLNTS
# Notes: whole designed probe, mean of two concentrations, ends assumed
# Constant ends, left off below: GTGAGCGGTGCCCATTGATGGGGAAC … TTTCACTGGGATCGTGGGGAC
Sequence,normalised bound fraction
TAAAAATGCAACTATAAGTTAAGTCTAACTAATAAAAGTGTTCATTAGATGAGAACGAGAACGTCTTATAGAAAAATAGATGGAAATACTATGTAATCTATGAGTTAAAATCGCAGATTGAAGTGAAAAAAATACTAGCTAGATGTAAGACATGAACCTAGAGCAAATGAAATGCAGAAAGTTAAAAAGAGAA,-0.0183 ratio
GGGTCAAGTGGCCACCCAGAGAGCTGATGCATGCTGATGTGAGACTCCTACAAGCCATGAGACAAAACAGACTTATAAACATGTAACGTGTTGTGTTGACACAAGGAACCAAGCAGTGATGAGGAATGTGCCAATGGCTGAGATGGAGCAACCCACTTGCTGAGTCTTGCAAAAGCAACCTCCCTAGATGAAC,0.373 ratio
GTCAATTACGTGGGAAATAAAGATAAGGCAAATGCACTTGGTTCTCTGAACTATTCTGACATTAGAAGAAATGCCAAGTCAGCAGATATCTGCAGATTACATTTCACAATAACCTAATCATGCATTTGCAGCTTTCTGGAGCAAAACACTAACTGTTCTCCAAACAGCCACCTGACAATCTAAGGCTGAAACA,-0.0323 ratio
CTGTAGCCTTTGCAAATAACCTTTTTGAACAAAAACGGCAATGGCTCATTCCAAACCCGATCAAAGAGGTATGCATGACTCACAGCCACTAAATAATCTTTGATGCCTGATGGCAGTAATATGGCTATTTATATTCAGAGCCTGATTTAACCAGTGGCATTCCTGTAATAAGATAATAAGCATGAGCTGTTTA,0.103 ratio
GGCACCTGCCCTTCTGGCAACTTCTTGGAAACAGTTGGCAGTGTTTGCTTCCTGACTCCTAGCAGGCCGCTGGGGTGCAGCTATTGTGTTTAAGTAAACAGGCCACTCGCCTATTCAGCTTGGCAGCTTGATAGATGCCTACGCCTAGATCTTGTCAAATCGGTTTGTGGTTGAGTGGCTGCCAGGCCTAGAG,0.369 ratio
ATCTTCCCCCTCTTCCTTGCCCCACCAGCTCACCTACGGGGGTTATTTGCAGATAGGAAAATAAATAAAGCCGGCATTCGTTAACGCAGTTCTGGCGCAAACTGCTGTTTGCTCTGGATGAATCATGGTCCTTTGGCGAGGCGTGGCTCCGGGAGAGCAAAGCACCGTGTCAGGGCCATGATCCGGGGTGGCC,0.347 ratio
ACACAGAAACCCTTTGGTAACATGAGCTGTGTTTCCTTGTTAAATTGACCCTGCTGTCTGACACCCTCTGTTGCTACTGTTACATCACAGCTAGGTCAACATCCAGATTCCTTTACCAACTATGTGAGAATCTACTAAAAGCATTCTCTAATAATACAGTCAGCCCTGGGAAAGACATCTGAGCTTTAATTAA,0.0364 ratio
AAAGATTTTTTTGACACCCTCAAGAAAGGAGATTAAAAATTATGACTGTTTGACATTTAAAAAAAAGCACTAGGAGGTATGTGCTGCTCAGCCGTGTTTACATAGTCATGTATTGTTTTGTTTAACCAAATTATGTAAATACAGTATTCTACATCTTTTATTTTGAGGTATATATTCATTGTCCTGTGATAAA,0.483 ratio

# Study 3 — technique: RNA Bind-n-Seq; form: RNA; medium: in vitro; concentration: not given; notes: RNA with constant flanks, ends assumed; relative to: input RNA pool; direction: higher = stronger binding
# Target: RING finger protein unkempt homolog, zinc fingers 1-6, GST-SBP tag (UNK, Homo sapiens, UniProt Q9C0B0, residues 30-357)
# UniProt Q9C0B0, sequence (30-357, looked up): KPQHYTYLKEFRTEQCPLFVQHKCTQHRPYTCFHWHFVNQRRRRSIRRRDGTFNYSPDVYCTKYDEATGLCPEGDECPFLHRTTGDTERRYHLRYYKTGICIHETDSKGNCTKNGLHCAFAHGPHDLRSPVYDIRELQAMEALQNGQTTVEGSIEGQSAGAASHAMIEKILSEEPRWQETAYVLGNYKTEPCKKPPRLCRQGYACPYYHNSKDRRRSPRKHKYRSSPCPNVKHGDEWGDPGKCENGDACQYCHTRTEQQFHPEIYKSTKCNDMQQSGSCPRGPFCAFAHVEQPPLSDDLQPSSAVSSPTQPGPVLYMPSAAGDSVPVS
# Constant ends, left off below: GGGAGUUCUACAGUCCGACGAUC … CAACAGAGGAUUGAGCAUCA
Sequence,bound/input enrichment
AGGGCCUUGCAGAAACUACAGGAGAACACCUAUAUAAAACUUGUGAUUUCCAACUUGGAGAACCGUCUUCUUCAAUUCCAUAUUCAUGCGUGGCAUGAAUCAUCUCAUAUAUUCUUAUGA,0.11 ratio
UACAGAGGAAGGGGUAGAGGGUAUUAUCAAGGAGGAGGAGGGAGAUACCAUCGAGGUGGCUACCGACCUGUCUGGAAUAGAAGGCACUCUAGGAGUCCUAGACGAGGUCGGUCACGGUCC,0.445 ratio
CUCAGUGAUCACACACGAAAUUCUGCCGAAGGCACAGAAUAUUUCAAAAUGCUUGCCGACGUUUUUGCUCCAGAAUUUCGAAGGCCAAAGAAUAUACAUCUCCGAAAUUUCUAUAUAAUU,0.319 ratio
AUAGAAUUCUGUACCCCAGUAAUCAACUAGUUUUCUAUUAAUGUGCUUGUCUGUUCUAAGAGCCGGAUUAACACAGGGGAAGUCUUGAGAAGGAGUUUUGAUUCUUUUAUAUGUUUUUAA,4.57 ratio
ACUCCUCCCCCUACUCCACCGGACCUCAACCAGGACUUCAGUGGAUUUCAGCUUCCCGUGGAUGUUGCACUCAAACGGGCUGCAGAGAUGGAGCUUCAGGCAAAACUUACAGCUUAACCC,0.186 ratio
AUCUUUAUCUCACAAGAUGAAAUACAGUCAUUUAUGGCUAAUAACCAGUCUUUCUACAGCAACCGAGAACAAUACCGACAGCAUCUGAAGGAGAAAUUUAAUAAAUACUGCCGGUUAAAU,0.182 ratio
GUGGUGACUGAGUUCCCUUUAUCAAACCCUUCAGUGGGCACAAAAUUGAGUGCUUGAUUUCCGGUUUUAUUUUUUUAUGAAUGUCCAAAUCUGUGUUUCCCCCUGCCCUCCCAGACUGUG,1.52 ratio
GAGCAGUCCUUGGAAACUGCGAAAGCAGUGAAGGAACGCUACAGUUAUGUCUGCCCAGAUUCCGUAAAAGAGUUUAACAAGUAUGACACCGAUGGGUCAAAGUGGAUCAAACAGUACACC,0.111 ratio
AUCUAUACAACCAUCAACGCUCACCAGUGGUCUGAGACGGUCCAGCCAAUUAUGGAAGCACUCCGAGAUGCAACAAGGAGACGCGCCUUUGCCCUGGUCUCUCAAGCGUAUACUUCAAUC,0.177 ratio
GUGCUGACUUGGGAUUUUUAACCUUAUAUAUCUUUUUCCUUUAUUCAAAACAAAACAAUUUUCCGCACACUGAAAAAAAAAAAAGCCAAAUGUUUUGUGCCUUUCUAAGGCAGCGCUGUA,3.04 ratio
GAAAUUUCAAAAGCAGGGGAGUAUGUACGAGUUAAACUACAACUGAAUCCAGCUGCCCGGGAAUUUAAACCAGAUGUAAAGUCUAAACCAGUGUCAGAUUCAUCUUCAGCACCAGCUUUU,0.186 ratio

# Study 4 — target: CCNA1, cyclin fold, Cln2 fusion (human); technique: yeast growth competition, sequencing; medium: yeast; notes: strong parent motif; relative to: not given; direction: higher = stronger binding
# Parent: RBL2 docking peptide (human); STTRRRLFVENDS
Change,normalised enrichment score
R6Q,0.898
E10L,0.115
R5F,0.065
S1L,0.531
D12A,0.353
L7E,0.321
L7A,0.773
V9P,0.528
S1A,0.675
L7Y,0.24
T2S,0.445
T2A,0.438
T2W,0.492
V9H,0.75
F8D,0.298
R6C,0.726
D12G,0.808
T3E,0.0396
N11K,0.66
S13A,0.59
R4L,0.334
T2Q,0.941
F8P,0.498
V9F,0.538
S13R,0.694

# Study 5 — technique: RNA Bind-n-Seq; form: RNA; medium: in vitro; concentration: 365 nM; relative to: no-protein control; direction: higher = stronger binding
# Target: RNA binding protein fox-1 homolog 2, RRM domain, GST-SBP tag (RBFOX2, Homo sapiens, UniProt O43251-10, residues 100-194)
# Notes: natural RNA segment, single round, ends assumed
# Constant ends, left off below: GGGAGUUCUACAGUCCGACGAUC … UGGAAUUCUCGGGUGCCAA
# Residues (chain): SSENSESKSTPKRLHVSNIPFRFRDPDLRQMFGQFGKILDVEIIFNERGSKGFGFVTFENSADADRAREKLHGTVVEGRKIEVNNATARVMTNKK
Sequence,RBNS enrichment (R)
UAAAGAGAAAAGUACAAGACAGAAAUCUUCUAGCACUUUGUAAACACAGUGAAUAACCUCUUGGAGUAUUUUUGGCUUUAUAUAAAACAAGGUUUUUAAUUGUAAAGUAU,0.645
AACUUUCGUUUUGGAGUGUUCAUUUUCUGAACUUGACCCUCACAUUGUAGGGGUGCAGUUUGUCCAACUCUUUCCAACAGCCCAUUAGACACCACUAGCUGGAUAUUUCA,0.276
UUUGUAAAUAUCUUUGUGAAUAUUUUAGUAUUGUCUUUGAUAAUAUUCAACAUUUUCAUGACCUGGUUAUAGCCUUUGCUGGUGUUUUUAAAAUAUCUUGACUCAGUGAC,0.359
CUCCCUCCGAUGUUGGACUGCCUGAUGCUCCCAAUGACAUAUCCAAUGCUCCUGGCAUUUCUGGAGCAGGAGGUUGUCAGGACAACACAUAUAACCACCAAGGAUGUGUU,0.467
AGUCAAGAUUUGGAAUUUAAGUCACUGGCAGGUAUCUGUGCAUUCAUAGAACUUAUAAAGGUCCCAGGAUCACUUUUAAGGGAUUUUUAUUAGUUUAAAGGUAAAUAAAG,0.468
UCAGGAGUAAUACAAAUCAGGUAUUUCAUCAUCAUUUGGUAAUAUGAAAACUCCAGUGAACUCCCAAGGACAUUUACAACAUUUAUAUUCACACGCUGUAUGGAAGGGUG,0.843
GGCCAAGUGGAUUUUAAGAAGUGAAACUUUUUUUUUUUUUUUUUUUUUUUGAGAUGGGGUUUCACUCUCUCACCCAGACUGGAGUACAGUGGGGAGAUCUCAGCUCACUG,0.702
AUUUGAUGAGGACGACUGGUCCGAUUAACUCUUUCUGCCUGCUGCCCACCUUCUUUUUCUUUCCUUCCUACCUGCCUUCUUUGAUGCCAACCCCAACAGACCCGUAGGGG,2.15
GGAGAACCUACAAAGCUGGCAGAGUUUUGUCUUGCAUUGCGCCUCUCAGUGAACCUUCUCAGUAAAUGGUGCCUUACCGUCACUCCAGUUUCAGGAACCAGCCACAUUUC,0.338
CAUGUAAAUAUCUACAUACAGGGAUAUUUGUAUGUGUGGUUGUGAAACCCAUACACAAGUGGAUUUGGCCAUCUUUGGGCAGUGAGGUCAAAUGUGAAUAUGUGUAAAAG,0.535
UUUUGUUGCAAGUUUGUGAAGGGGGAAAAUGUUUUGAUUUGUUUCUACUGACCUGAAUGUGUUGGAUCUUCACGUGUCGUUUUGUUUUGGCUUUAUUGAUGCACGGAUGC,3.74
GAGCCCCAUUUCCAAGACCCCUCACAUCCAAUCCUGUCCUGUAACAUCCAUCAAGGAUUUCCAUAGGGGUGACUGGUGCCCACCCAAGACUGCACCAGUGCCUGCUCAUU,0.907

# Excerpt of the above (study 1):
Sequence,E-score
AGAAGACC,-0.0428
CCCCACTA,-0.22
ATTAGGGC,-0.0448
GCGTATTA,0.0414
CTAGTTAC,-0.103
